Measured values collected from several papers.
A part holds a random share of what one study measured. Changes are numbered by the printed parent chain.

Sample 1 — target: CCNB3, cyclin fold, Cln2 fusion (human); technique: yeast growth competition, sequencing; sample: yeast; notes: weak parent motif; reference: not given; reading: higher = stronger binding
Parent: WEE1 docking peptide (human); CTLRQKLIFSPCS; partner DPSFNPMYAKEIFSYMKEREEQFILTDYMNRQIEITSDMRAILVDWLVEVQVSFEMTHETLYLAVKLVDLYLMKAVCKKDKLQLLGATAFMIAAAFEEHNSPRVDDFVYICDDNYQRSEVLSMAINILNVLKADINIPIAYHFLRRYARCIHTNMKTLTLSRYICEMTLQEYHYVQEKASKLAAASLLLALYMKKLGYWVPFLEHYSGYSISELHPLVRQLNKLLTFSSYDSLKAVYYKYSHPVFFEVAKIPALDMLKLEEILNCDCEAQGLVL
Change | normalised enrichment score
CTLRQKLIASPCS [F9A] | -0.0389
CTLRQALIFSPCS [K6A] | 0.405
CTLRQKAIFSPCS [L7A] | 0.228
CTLRAKLIFSPCS [Q5A] | 0.68
CTLRQKLIFSACS [P11A] | 0.275
CTLRQKLAFSPCS [I8A] | 0.556

Sample 2 — target: FOSB, bZIP domain (human); technique: DHFR protein complementation; sample: yeast; reference: wild-type JUN-FOS pair; reading: higher = stronger binding
Notes: single substitutions, most at no-binding floor
Parent: JUN, bZIP domain (human); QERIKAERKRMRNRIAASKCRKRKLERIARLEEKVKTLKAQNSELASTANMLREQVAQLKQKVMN; partner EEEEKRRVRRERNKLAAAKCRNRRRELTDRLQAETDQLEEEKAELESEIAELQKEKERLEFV
Change | binding fitness [natural log]
L31F | -0.46
I28C | -0.245
A46C | -0.336
L31H | -0.468
A29M | -0.468
M51S | -0.0612
R53G | -0.966
T37A | 0.019
R30G | 0.0044
M51V | -0.0824
Q55D | -0.333
S43L | -0.0725
E54T | -0.197
S47A | 0.0458

Sample 3 — technique: RNA Bind-n-Seq; molecule type: RNA; sample: in vitro; tested at: 365 nM; reference: no-protein control; reading: higher = stronger binding
Target: RNA binding protein fox-1 homolog 2, RRM domain, GST-SBP tag (RBFOX2, Homo sapiens, UniProt O43251-10, residues 100-194)
Notes: natural RNA segment, single round, ends assumed
Construct (chain): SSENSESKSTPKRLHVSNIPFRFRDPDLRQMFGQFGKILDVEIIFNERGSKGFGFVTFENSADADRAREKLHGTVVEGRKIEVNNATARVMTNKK
Oligonucleotide | RBNS enrichment (R)
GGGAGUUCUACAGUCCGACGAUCUUGAACUUAGAGUGCUGGCUCUGCUAUAUGGUACAACUAAUGCUAGACCUACAGUUUAUGUAUACAGUUGAUUUUGAUGUAUUUAUAAAAGCUUUUUUUUCUAGAUUUGAUGGAAUUCUCGGGUGCCAA | 0.581
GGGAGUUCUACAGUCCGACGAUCAAGGCCAAGUGCAGUGGCUCACACCGGUAAUCCCAGCACUUUGGGAGGCCGAGGUGGGAGGAUUGCUUGAGCUCAUGAGUUCAAGACCAGCCUGGGCAACAUAGCGAGACUGGAAUUCUCGGGUGCCAA | 0.668
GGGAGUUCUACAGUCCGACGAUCCGGGGGUGGGCUCUGGGGAAGCCGGUGCGCCCCCCACGCCUCCGCUGCCAGUGCCUUACAUUCUGGAGCGACCCCCCUCCCUGGUGCCUCCCAGCGAAGGGGGACCGCCGUGGAAUUCUCGGGUGCCAA | 0.263
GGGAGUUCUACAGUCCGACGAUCAGGCCUCUGCUCCUGCGCCUGCCUGCAUGCUCUCUCUUGUCGUUGGAGCCUGGAGCCUUGCUCUCUGGGCACAGAGGGCUCUGCUCUCCUGCCUGCUGGGACCUGUGGAUUGGAAUUCUCGGGUGCCAA | 1.61
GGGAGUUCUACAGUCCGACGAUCGACCUGAAGGCUGCCAACACUCCUCUAAGGACACUGGGUCACAUGCCAGCCACCUGUUCUCGCCACCGGCCACCACGUGCCGGGCCGCCAUCGGAGGUGCCUGAAGAGCUUGGAAUUCUCGGGUGCCAA | 0.345
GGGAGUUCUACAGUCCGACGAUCAGAGAAGAUGGCCACCAGCUGGCUUCCUAGAUAUUUUAAACUUUUGUUCUUUAAUAUGCUGUCCAUGGCUGAGUUUAUUAGUACAUGGGCUUAGUGACCACAAAAUAUUUUGGAAUUCUCGGGUGCCAA | 0.455
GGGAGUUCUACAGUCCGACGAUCCACUGGACGGGUGCUGCAUCGGCAAGGCCAAGUUGAACACCGGAUGGUGCCAACCAUCGGUUGUUUGGCAGCAGCUUUGAACGUAGCGCCUGUGAACUCAGGAAUGCACAUGGAAUUCUCGGGUGCCAA | 0.829
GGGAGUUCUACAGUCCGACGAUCGGUUAAAGUAACUCCUGGCAUUGCCCACCAGGGGGCUGGUGCACCUGCUGACCUCAGGGUCACAGUUGAGUCAUUUGCCAGUUGACGGAGCAAGUUUGACCUUGGUUCUGUGGAAUUCUCGGGUGCCAA | 0.354
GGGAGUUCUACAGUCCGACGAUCGAGCUGAGAGCCAGAAAUGUGGCUGUGAUUGCGAAAGAGACGGAGUUUGGGAGACCCAUGGAAGAAAACCUUCGCCAUCUCCAUUGUUUUACCCCCAGCUCAAGAUGGACUGGAAUUCUCGGGUGCCAA | 0.515
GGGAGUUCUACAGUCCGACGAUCCAGGAUGAGGAAGGUGCAUCCUAACCCUAACCGCCCGGCUCACCUGCGCUUGAAGAUGUAUGAGUUUGCAGGGCGGCUGGUGGGCAAGUGUUUGUAUGAAUCCUCUCUAGUGGAAUUCUCGGGUGCCAA | 0.526
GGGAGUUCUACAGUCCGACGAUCUGGUUCUGUAAAGCUCUUGUACCGCUGGAGAAACGGCAUCACUAUAAGCUAUGAGUUGAACUGUUUCUGUCAAGUAUGUCUUGUGUCCACACAUGGUUUGGAUGCUUCUAUGGAAUUCUCGGGUGCCAA | 1.08
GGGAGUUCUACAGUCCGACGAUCGGUGCUGGGUAUGGAACCCAGGGCUUUGUGCAUGCUAGGCGAGCACUUACCAACUGAGCUACAUCCCCAAUCCCACUACAGCCCAUUUUAAAACCAUCUUGAAAGAACCCUGGAAUUCUCGGGUGCCAA | 0.642

Sample 4 — target: UBE2B UBC core domain (UniProt P63146); technique: yeast two-hybrid; sample: yeast; notes: mostly zero background; reference: not given; reading: higher = stronger interaction
UniProt P63146, sequence (whole entry, looked up): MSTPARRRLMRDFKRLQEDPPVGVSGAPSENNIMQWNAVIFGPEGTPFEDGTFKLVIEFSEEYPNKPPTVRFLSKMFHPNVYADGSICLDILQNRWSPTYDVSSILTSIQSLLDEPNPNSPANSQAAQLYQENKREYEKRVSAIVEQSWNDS
B1: ANKIB1 RING domain (UniProt Q9P2G1); chain LSPGDLDTSLCDICMCSISVFEDPVDMPCGHDFCRGCWESFLNLKIQEGEAHNIFCPAYDCFQLVPVDIIE
B2: RFPL2 RING domain (UniProt O75678); chain MAALFQEASSCPVCSDYLEKPMSLECGCAVCLKCINSLQKEPHGEDLLCCCSSMVSRKNKIRR
B3: TRIM15 RING domain (UniProt Q9C019); chain SLKVVHELPACTLCAGPLEDAVTIPCGHTFCRLCLPALSQMGAQSSGKILLCPLCQEEEQAETPMA
B4: RNF175 RING domain (UniProt Q8N4F7); chain LPTRSLSDNICAVCGQKIIVELDEEGLIENTYQLSCNHVFHEFCIRGWCIVGKKQTCPYCKEKVDLKRMIS
B5: PEX2 RING domain (UniProt P28328); chain DNTLATSGKECALCGEWPTMPHTIGCEHIFCYFCAKSSFLFDVYFTCPKCGTEVHSLQPLK
B6: RNF14 RING domain (UniProt Q9UBS8); chain IKCFNSKLFLCSICFCEKLGSECMYFLECRHVYCKACLKDYFEIQIRDGQVQCLNCPEPKCPSVATPGQVK
B7: TRIM38 RING domain (UniProt O00635); chain STKKMMEEATCSICLSLMTNPVSINCGHSYCHLCITDFFKNPSQKQLRQETFCCPQCRAPFHMDSLRP
B8: TRIM52 RING domain (UniProt Q96A61); chain PMQTLQEEAVCAICLDYFKDPVSISCGHNFCRGCVTQLWSKEDEEDQNEEEDEWEEEEDEEAV
B9: UBE4A RING domain (UniProt Q14139); chain LQQQEEETYADACDEFLDPIMSTLMCDPVVLPSSRVTVDRSTIARHLLSDQTDPFNRSPLTMDQIRPNTELKEKIQRWLAERKQQKEQLE
B10: TRIM35 RING domain (UniProt Q9UPQ4); chain PSRSFKEELLCAVCYDPFRDAVTLRCGHNFCRGCVSRCWEVQVSPTCPVCKDRASPADLRT
B11: RNF149 RING domain (UniProt Q8NC42); chain EKGIDVDAENCAVCIENFKVKDIIRILPCKHIFHRICIDPWLLDHRTCPMCKLDVIKALGYW
B12: RNF112 RING domain (UniProt Q9ULX5); chain QPMAPRELPTCSICLERLRDPISLDCGHDFCIRCFSTHRLPGCEPPCCPECRKICKQKRGLR
B13: RNF4 RING domain (UniProt P78317); chain TGLRPSGTVSCPICMDGYSEIVQNGRLIVSTECGHVFCSQCLRDSLKNANTCPTCRKKINHKRYHP
Sequence | lacZ reporter activity
B1 (ANKIB1 RING domain) | 0
B2 (RFPL2 RING domain) | 0
QLQDEEDDSLCRICMDAVIDCVLLECGHMVTCTKCGKRMSECPICRQYVVRAVHVF (RNF34 RING domain (UniProt Q969K3)) | 0
B3 (TRIM15 RING domain) | 0
ISNDSETLEECMVCSDMKRDTLFGPCGHIATCSLCSPRVKKCLICKEQVQSRTKIE (MIB1 RING domain (UniProt Q86YT6)) | 0
B4 (RNF175 RING domain) | 0
B5 (PEX2 RING domain) | 0
B6 (RNF14 RING domain) | 0
B7 (TRIM38 RING domain) | 0
B8 (TRIM52 RING domain) | 0
B9 (UBE4A RING domain) | 0
B10 (TRIM35 RING domain) | 0
B11 (RNF149 RING domain) | 0
MANWVFCNRCFQPPHRTSCFSLTNCGHVYCDACLGKGKKNECLICKAPCRTVLLSK (RNF212 RING domain (UniProt Q495C1)) | 0
B12 (RNF112 RING domain) | 0
B13 (RNF4 RING domain) | 0

Sample 5 — technique: protein-binding microarray; molecule type: hairpin DNA; sample: in vitro; tested at: not given; reference: not given; reading: higher = stronger binding
Target: Runt-related transcription factor 1, full length (RUNX1, Homo sapiens, UniProt Q01196-8, residues 1-480)
Notes: whole hairpin DNA, median over replicate spots
Oligonucleotide | median fluorescence
CTCAGTTCCGTGGGCTGGACTCCTGTCCAGCCCACGGAACTGAGACACTC (5mC at 9 35) | 2130 a.u.
CTCAGTTCGGTGGGCTGGACTCCTGTCCAGCCCACCGAACTGAGACACTC (5mC at 36) | 1870 a.u.
CTCAGCGCTGTGGGCTGGACTCCTGTCCAGCCCACAGCGCTGAGACACTC | 1940 a.u.
CTCAGTTATGTGGGCTGGACTCCTGTCCAGCCCACATAACTGAGACACTC | 1880 a.u.
GAGGCCTGTCGCGGTAGGCCTCCTGGCCTACCGCGACAGGCCTCACACTC | 1960 a.u.
GAGGCCCCGCCGCAACAGCCTCCTGGCTGTTGCGGCGGGGCCTCACACTC (5mC at 36) | 2700 a.u.
CTCAGTTCTGTGGGCTTGACTCCTGTCAAGCCCACAGAACTGAGACACTC | 1920 a.u.
GAGGCCCAACCGCCGCAGCCTCCTGGCTGCGGCGGTTGGGCCTCACACTC (5mC at 14 30) | 2950 a.u.
GAGGCCCAACCGCAACGGCCTCCTGGCCGTTGCGGTTGGGCCTCACACTC | 5260 a.u.
GAGGCCTATTGTGGTTGGCCTCCTGGCCAACCACAATAGGCCTCACACTC | 3070 a.u.
CTCAGTTCTGTCGGCTGGACTCCTGTCCAGCCGACAGAACTGAGACACTC (5mC at 32) | 1670 a.u.
